# Experimental data gathered from unrelated publications.
# Parts stem from different laboratories: compare values within a part only.

# Series 1
# Target: Sal-like protein 4, full length isoform A (SALL4, Homo sapiens, UniProt Q9UJQ4, residues 1-1053)
# Chain of UniProt Q9UJQ4 (whole entry, looked up): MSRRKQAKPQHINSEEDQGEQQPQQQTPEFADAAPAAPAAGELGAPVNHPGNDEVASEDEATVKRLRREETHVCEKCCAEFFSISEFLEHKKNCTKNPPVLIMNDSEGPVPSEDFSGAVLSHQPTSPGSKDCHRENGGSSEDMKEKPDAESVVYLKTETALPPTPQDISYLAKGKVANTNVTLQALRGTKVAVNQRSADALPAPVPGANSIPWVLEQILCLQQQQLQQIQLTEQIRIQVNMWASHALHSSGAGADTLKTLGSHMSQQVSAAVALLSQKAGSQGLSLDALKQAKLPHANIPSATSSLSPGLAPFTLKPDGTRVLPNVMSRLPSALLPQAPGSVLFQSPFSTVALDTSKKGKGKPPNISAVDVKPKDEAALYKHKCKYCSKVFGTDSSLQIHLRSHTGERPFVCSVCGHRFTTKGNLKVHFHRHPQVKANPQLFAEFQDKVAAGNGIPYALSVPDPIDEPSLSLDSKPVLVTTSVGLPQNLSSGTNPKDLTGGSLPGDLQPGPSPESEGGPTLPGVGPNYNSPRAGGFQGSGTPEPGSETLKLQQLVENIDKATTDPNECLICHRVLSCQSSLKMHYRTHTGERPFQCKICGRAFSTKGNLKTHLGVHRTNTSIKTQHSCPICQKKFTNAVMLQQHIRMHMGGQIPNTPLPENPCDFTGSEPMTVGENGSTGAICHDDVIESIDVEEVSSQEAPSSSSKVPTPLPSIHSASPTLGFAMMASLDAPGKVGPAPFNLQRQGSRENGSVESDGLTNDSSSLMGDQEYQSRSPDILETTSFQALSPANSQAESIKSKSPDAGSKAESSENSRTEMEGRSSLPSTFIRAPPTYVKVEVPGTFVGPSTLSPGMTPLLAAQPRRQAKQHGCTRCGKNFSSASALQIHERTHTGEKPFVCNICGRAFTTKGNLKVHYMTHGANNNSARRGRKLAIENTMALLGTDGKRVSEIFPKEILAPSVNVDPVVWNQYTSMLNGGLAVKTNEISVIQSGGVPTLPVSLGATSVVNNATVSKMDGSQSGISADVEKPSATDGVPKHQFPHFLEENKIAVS
# Method: universal PBM
# Molecule type: double-stranded DNA, one strand shown
# Sample: in vitro
# Concentration: 600 nM
# Notes: 8-mer, flanks averaged, mean of replicates
# Reading: higher = stronger binding
Oligonucleotide,E-score
GTTCCGTA,0.043
CCGTAAGA,-0.0987
CCGGGATA,-0.148
CATACGAG,0.00585
AACCTAAC,0.0633
GCAAACAC,-0.0953

# Series 2
# Target: Histone acetyltransferase KAT6A, winged helix 1, GST fusion (KAT6A, Homo sapiens, UniProt Q92794, residues 1-85)
# Method: protein binding microarray
# Molecule type: double-stranded DNA, one strand shown
# Sample: in vitro
# Concentration: not given
# Notes: 8-mer, flanks averaged, mean of 2 arrays, mostly near background
# Relative to: not given
# Reading: higher = stronger binding
# Target sequence (chain): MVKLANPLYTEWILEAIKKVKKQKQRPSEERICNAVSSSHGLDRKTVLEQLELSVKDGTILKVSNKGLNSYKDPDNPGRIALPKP
Oligonucleotide,E-score
CACTGTGC,0.0672
CGAAATTC,0.0432
AATTATCT,-0.0687
AGTTAGGG,-0.177
AGAGCCGG,0.245
CTTGACTA,-0.148
ACGTTAGG,-0.0563

# Series 3
# Target: Ras GTPase-activating protein-binding protein 1, C-terminal RGG region (G3BP1, Homo sapiens, UniProt Q13283)
# Chain of UniProt Q13283 (whole entry, looked up): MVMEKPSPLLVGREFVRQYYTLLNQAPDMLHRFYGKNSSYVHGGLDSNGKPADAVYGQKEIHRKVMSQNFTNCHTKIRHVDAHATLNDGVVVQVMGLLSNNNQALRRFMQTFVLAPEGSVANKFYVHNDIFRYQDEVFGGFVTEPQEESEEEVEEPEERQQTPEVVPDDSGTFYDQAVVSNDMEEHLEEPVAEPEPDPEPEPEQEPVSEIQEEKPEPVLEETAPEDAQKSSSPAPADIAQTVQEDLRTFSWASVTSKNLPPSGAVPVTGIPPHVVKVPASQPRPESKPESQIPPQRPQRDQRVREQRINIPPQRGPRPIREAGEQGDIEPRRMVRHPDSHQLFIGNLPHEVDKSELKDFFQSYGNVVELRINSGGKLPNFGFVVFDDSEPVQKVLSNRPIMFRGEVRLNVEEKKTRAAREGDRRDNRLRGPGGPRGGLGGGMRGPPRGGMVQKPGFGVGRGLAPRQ
# Method: RNA Bind-n-Seq
# Molecule type: RNA
# Sample: in vitro
# Concentration: 1 µM
# Notes: whole 134-nt RNA, ends assumed
# With: 150 mM KCl
# Relative to: input library
# Reading: higher = stronger binding
# Constant ends, left off below: GGGAGUUCUACAGUCCGACGAUC … UGGAAUUCUCGGGUGUCAAGG
Oligonucleotide,log2 enrichment
UUUUACAACCCCAAUUUAAAGAAAGUUGUAGAGGCCCACAAGAUCGUUCUCUGCGCUGUAAGCCAUGUUUUCAUGCUGCUUUUCAAUGUG,-1.43
GCAGGAAGUAAAAACAAAUGGAAAUGCUUCGGAUAAAAGCAGGGGUGGGGGUUGCUAAGGAAAGGGUGGGAUGGGAGUGGGUAAAGAGUU,1.75
AGUCCUGUGCUACACAUCGUAUGUACCGAAUCAAAUUUUUAAAUUUUUAAAUUUAAAAAAGUAUUAUGUUACGCCGUUCGGAUCUGCACU,-2.77
UCAAGUCCUGUGCUACACAUCGUAUGUACCGAAUCGGAAAAAGGUUUUUGGAGGAAAGUAUUAUGUUACGCCGUUCGGAUCUGCACUUCC,-1.33
UCCUGUGCUACACAUCGUAUGUACCGAAUCGGGGUUUUUUGGUUUUUUGGUUUUUUGGGGAAAGUAUUAUGUUACGCCGUUCGGAUCUGC,-1.13
UCCUCAAGUCCUGUGCUACACAUCGUAUGUACCGAAUCGGUGGGUGGGGUGGAAAGUAUUAUGUUACGCCGUUCGGAUCUGCACUUCCAG,0.127
GCAGGAAGUAAAAACAAAUGGAAAUGCUUCGGAUAGUGGCAGGGGUGGGGGUUGCUAAGGAAAGGGUGGGAUGGGAGUGUGUAAAGAGUU,1.71

# Further values, each from its own experiment
Substance,target,test,test system,conditions,scale,quantity,result
"PhoQ, residues 284 288 289 292 302 303 AMDMFI","PhoP, residues 12 14 15 18 19 LHHVQ (Escherichia coli, UniProt P23836)","Sort-seq, item: YFP reporter",E. coli,"PhoQ-PhoP variant library, with: 10 µM Mg2+","relative to: high Mg2+ state, higher = stronger signaling",fold induction,0.415

# Some of these lines once more (series 3):
Oligonucleotide,log2 enrichment
GCAGGAAGUAAAAACAAAUGGAAAUGCUUCGGAUAGUGGCAGGGGUGGGGGUUGCUAAGGAAAGGGUGGGAUGGGAGUGUGUAAAGAGUU,1.71
AGUCCUGUGCUACACAUCGUAUGUACCGAAUCAAAUUUUUAAAUUUUUAAAUUUAAAAAAGUAUUAUGUUACGCCGUUCGGAUCUGCACU,-2.77
